Measurements gathered from unrelated publications.
A part holds a random share of what one study measured. Substitutions count along the parent as printed.

Sample 1 — technique: DHFR PCA, deep sequencing; medium: yeast; added: (+)-ABA 0.39 µM; relative to: wild-type fitted maximum; direction: higher = stronger binding; endpoint: relative binding score
Target: ABI1, truncated, D143A, DHFR fusion (Arabidopsis thaliana)
Setting: methotrexate growth selection, single substitutions
Starting sequence: PYL1, truncated, DHFR fusion (Arabidopsis thaliana); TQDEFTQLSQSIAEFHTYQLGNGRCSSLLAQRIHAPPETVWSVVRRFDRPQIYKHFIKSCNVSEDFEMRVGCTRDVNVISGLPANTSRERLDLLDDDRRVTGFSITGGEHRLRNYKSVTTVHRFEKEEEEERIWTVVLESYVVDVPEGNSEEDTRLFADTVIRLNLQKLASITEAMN; partner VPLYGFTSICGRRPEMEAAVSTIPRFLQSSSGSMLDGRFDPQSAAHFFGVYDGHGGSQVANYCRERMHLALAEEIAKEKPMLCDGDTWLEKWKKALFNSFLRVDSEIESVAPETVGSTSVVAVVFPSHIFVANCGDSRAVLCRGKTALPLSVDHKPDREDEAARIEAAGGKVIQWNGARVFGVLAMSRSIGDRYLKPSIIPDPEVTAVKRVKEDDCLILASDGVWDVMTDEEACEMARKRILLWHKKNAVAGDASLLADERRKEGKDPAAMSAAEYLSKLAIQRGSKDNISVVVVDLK
S87H: 42.3%
V78A: 8.68%
K126P: 71.6%
E174T: 6.12%
N85M: 63.1%

Sample 2 — technique: protein-binding microarray; form: double-stranded DNA, one strand shown; medium: in vitro; tested at: 2540 nM top; setting: 60-bp whole probe; added: salmon DNA 0.4 mg/ml; relative to: random background probes; direction: higher = stronger binding; endpoint: fitted relative affinity; constant ends, left off below: GCCTAGCAC … GTCTTGATTCGCTTGACGCTGCTG
Target: Interferon regulatory factor 3, full length, phosphomimetic (IRF3, Homo sapiens, UniProt Q14653, residues 1-427, S386D/S396D/S398D/S402D/T404D/S405D)
Construct (chain): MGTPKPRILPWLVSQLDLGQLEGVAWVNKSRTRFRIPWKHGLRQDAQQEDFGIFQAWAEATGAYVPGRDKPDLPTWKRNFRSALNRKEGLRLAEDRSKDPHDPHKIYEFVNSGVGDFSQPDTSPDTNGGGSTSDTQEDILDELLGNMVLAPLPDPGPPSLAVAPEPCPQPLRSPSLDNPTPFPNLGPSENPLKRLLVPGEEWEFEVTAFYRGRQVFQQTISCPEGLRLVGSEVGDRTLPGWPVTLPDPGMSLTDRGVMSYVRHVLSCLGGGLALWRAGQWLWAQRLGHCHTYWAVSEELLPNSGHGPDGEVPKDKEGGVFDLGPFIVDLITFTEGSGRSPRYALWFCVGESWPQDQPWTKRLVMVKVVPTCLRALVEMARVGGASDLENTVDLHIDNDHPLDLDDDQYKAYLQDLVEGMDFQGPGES
TTAGGACTGGGTTTAGGTTAGTGCTAG: -0.678 z-score
GACGATTTCAGTATCGAGACGTGCTAG: 2.45 z-score
TTAGATATCAGTCTCGATTTGTGCTAG: 1.76 z-score
AAGGTTATCCATCTCAAGTAGTGCTAG: 2.13 z-score
TTAGGTTTCCGACTGCTTTAGTGCTAG: 4.76 z-score
ATAGATTTCAGTTTCGATTAGTGCTAG: 6.26 z-score
GACGGTATCCTTCACCTGACGTGCTAG: 1.78 z-score
TTAGGTATCAACACTGGGTTAGTGCTA: 0.101 z-score
TCACATTCTGAATTCGAACTGTGCTAG: 2.15 z-score

Sample 3 — target: CCND1, cyclin fold, Cln2 fusion (human); technique: yeast growth competition, sequencing; medium: yeast; setting: weak parent motif; relative to: not given; direction: higher = stronger binding; endpoint: normalised enrichment score
Starting sequence: BRCA2 docking peptide (human); PSIKRNLLNEFDR
E10D: 0.89
K4Y: 0.339
N9R: 0.559
R13A: 1.25
N9I: 1.06

Single results of other studies
PhoQ, residues 284 288 289 292 302 303 DDMDFR  fold induction (PhoP, residues 12 14 15 18 19 AWHSL (Escherichia coli, UniProt P23836); Sort-seq, item: YFP reporter; E. coli; PhoQ-PhoP variant library, added: 10 µM Mg2+; relative to: high Mg2+ state, higher = stronger signaling): 0.891

For quick reference, copied from above (sample 3):
R13A: 1.25
N9I: 1.06
